Experimental data of several laboratories.
Numbered parts are unrelated; each lists some results of a single study.

Set 1 — technique: RNA Bind-n-Seq; form: RNA; matrix: in vitro; concentration: 365 nM; baseline: no-protein control; direction: higher = stronger binding
Target: RNA binding protein fox-1 homolog 2, RRM domain, GST-SBP tag (RBFOX2, Homo sapiens, UniProt O43251-10, residues 100-194)
Notes: natural RNA segment, single round, ends assumed
Residues (chain): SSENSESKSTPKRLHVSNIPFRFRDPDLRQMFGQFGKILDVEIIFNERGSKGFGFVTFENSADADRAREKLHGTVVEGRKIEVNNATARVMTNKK
`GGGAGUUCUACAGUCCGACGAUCAGUUUAUUUACUAUGCAAUAGACAUUCAUUGUUUUGUAUCCAGCUAGCUUUGGUUUAAUAUGCCACUGCUUUGUCUUUCUGUUACACAUACAGUUUUGAUUUAUUUACAAUGGAAUUCUCGGGUGCCAA`: “RBNS enrichment (R)” 0.387.
`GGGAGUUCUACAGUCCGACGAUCCCAAGACAUGGUGGAUAAAAAUGUGGCAAAGACGACAAGAAACUUCAGGUGGUAGCCCUGGUUGUGCUGGGCGGCUAGUGAUGAUGCUGUGCUCUGCCAUCCAUCCAGACUGGAAUUCUCGGGUGCCAA`: “RBNS enrichment (R)” 0.49.
Under “RBNS enrichment (R)”, `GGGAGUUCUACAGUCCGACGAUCUGUCAGCAGUCUCUGCCCUCUCGAGAGAGAUGAGCAGCCUCAACUGACGUUUCUAUUAAUGAGUUAUCAGAAGUUGCAACAUCUCUCCAGCACUAAUGUGUUUUGUCCACUGGAAUUCUCGGGUGCCAA` is recorded as 0.228.
Under “RBNS enrichment (R)”, `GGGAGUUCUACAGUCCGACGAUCCCUAGCUUCAGAUAAAGAUGAAAGAGAGGAGAUCAUUGUCUUCUGUCUUCUUCUGGCCCUGGGUUUAUACCAGGAAAGCCAUGCCAGAAUUACCAAAUAUGAAGUAUGAAUGGAAUUCUCGGGUGCCAA` is recorded as 0.286.
`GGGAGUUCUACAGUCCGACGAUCUUUUCUUACUGUGCUUAGGACUGCACGCAAGUGAGCAGACACCACCGACUUCCUUUCUGCGUCACCAGUGUCGUCAGCAGAGAGAGGACAGCACAGGCUCAAGGUUGGUAUGGAAUUCUCGGGUGCCAA`: “RBNS enrichment (R)” 0.474.
Under “RBNS enrichment (R)”, `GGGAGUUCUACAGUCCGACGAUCUAAUUGUUUACAAUAUUUGUACAUCUAUGCAAAAUACUUGAAUGGGCCAUGGUGCCUUUUUUCCUUGUUAGUAUUUAAUUAAAAAUGAAUUGUUUGUCAUUUGCAAUGUUUGGAAUUCUCGGGUGCCAA` is recorded as 0.652.
`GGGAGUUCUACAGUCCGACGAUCAUGUAGAAAAUGUGACAUCUGGAUAUAAAAUGAAAAUAAAUGUUAAAUUAAAUGGACCUUAACUAAAGUGACUCUCUAUCUUCUAACGAGGAAAGCAACAAGCAAAUAUGUGGAAUUCUCGGGUGCCAA`: “RBNS enrichment (R)” 0.494.
`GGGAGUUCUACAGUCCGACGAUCAAAUGCCAGUUUUCCUCCCCCGCCCUUGUUUUCCAUAAAACAUAUUUAUAUAUUGUGAUGAGGAGUACUUUCUGAAGAGUACUUCGUAUUUUUUUUUAAUUGCCUUGUUUUGGAAUUCUCGGGUGCCAA` — result for “RBNS enrichment (R)”: 0.54.

Set 2 — technique: RNA Bind-n-Seq; form: RNA; matrix: in vitro; concentration: not given; notes: RNA with constant flanks, ends assumed; baseline: input RNA pool; direction: higher = stronger binding
Target: RING finger protein unkempt homolog, zinc fingers 1-6, GST-SBP tag (UNK, Homo sapiens, UniProt Q9C0B0, residues 30-357)
Residues (chain): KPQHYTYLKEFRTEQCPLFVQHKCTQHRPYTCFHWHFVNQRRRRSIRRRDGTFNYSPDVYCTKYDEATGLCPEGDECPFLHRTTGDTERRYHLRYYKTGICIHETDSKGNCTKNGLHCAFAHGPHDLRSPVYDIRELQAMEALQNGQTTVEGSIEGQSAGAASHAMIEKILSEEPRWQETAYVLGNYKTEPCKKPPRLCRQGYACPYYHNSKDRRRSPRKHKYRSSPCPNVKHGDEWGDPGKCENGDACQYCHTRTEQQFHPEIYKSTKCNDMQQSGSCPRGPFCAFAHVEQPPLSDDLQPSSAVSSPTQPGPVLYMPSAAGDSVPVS
`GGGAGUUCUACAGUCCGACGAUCGUGAAGUACGCGUAUUAUGACACUGAACGCAUUGGAGUUGACCUCAUCAUGAAGACGUGUUUCCGCCCCAACCGGGUGAUUGGACUCUCAAGUGACUUACAACAAGUGGGAGGGGCCUCACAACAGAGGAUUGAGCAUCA` gave a bound/input enrichment of 0.155 ratio.
`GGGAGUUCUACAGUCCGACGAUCCGUGGAGUUGCCGUUCUGUGCACUGAGUAAAGCUAGACUUUUCUCCAGUCCUCUUUCUGGAACCGGAAACUCCCAAUAUUUAACCUUCAUUCAUCCUUAACGGUGUGGAAGGGUUGAUGGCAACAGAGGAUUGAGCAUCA` gave a bound/input enrichment of 0.086 ratio.
The bound/input enrichment of `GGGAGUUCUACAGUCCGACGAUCUAACGCCGCCGCCCCGGAGCCGCCUUGGAGGUCCCCCUCCCCACUAAGUGCCUCUUUGCACCGCACCAGUCCCCACCCGCACGCUCUCUGGACCACUACAGCUGGACGGGCAAUGGCGGGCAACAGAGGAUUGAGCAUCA` is reported as 0.44 ratio.
With `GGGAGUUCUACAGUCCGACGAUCAAUGAUGAAGUAACAAUAAAGUAUAAAGAUGAAGAUGGAGAUCUUAUAACAAUUUUUGACCGUUCUGACCUUUCCUUUGCAAUUCAGUGCAGUAGGAUACUGAAACUGACAUUAUUUGUUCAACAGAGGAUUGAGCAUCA` the bound/input enrichment was 0.252 ratio.
With `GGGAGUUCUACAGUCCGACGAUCGGCUUCGAGCUUCCUCAAGGGCCCCUGGGAACAUCCUUUAAAGGAAAAUAUGGUUGCGCCGACUACUGGGUGAAGGCUUUUCUCGAUCGCCCCAGCCAGCCAACUCAAGAGGCAAAGAAACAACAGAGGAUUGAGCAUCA` the bound/input enrichment was 0.119 ratio.
With `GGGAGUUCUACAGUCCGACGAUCGGUGUUCCCUCUUUUUUUCCACGAGGGUGUUUUUGGCUGCAAUUGCAUGAAAUCCCAAUGGUGCCGACCAGUGGCGAUGGAUCUAGGAGUUUACCAACUGAGACAUUUUUCAAUUUCUUUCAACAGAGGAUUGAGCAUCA` the bound/input enrichment was 0.533 ratio.
The bound/input enrichment of `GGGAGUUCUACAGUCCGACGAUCUGUGAAAGUGAGGGGAGGCUCCUGUCCCCCUCUCUUAAGGUCCCCAAACCUGGGAGUGCACCGGUACUAAAUCAAGCAGUGCAACUUGUAAUUAAGCAGCUGCAGUGUUUACAUGUUUCUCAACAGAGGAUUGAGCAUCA` is reported as 0.135 ratio.
For `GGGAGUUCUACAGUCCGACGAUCUUGACAUUACAGCCAAGAUGGUGCUGUCCCAGAGACAACGAGAUGAACUAAAUCGAGCUACCGCAGAUUAUCUUCGUUCAAAUGGCUAUGAAGAGGCAUAUUCAGUUUUUAAAAAGGAAGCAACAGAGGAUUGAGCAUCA`, the bound/input enrichment was 0.191 ratio.

Set 3 — technique: protein-binding microarray; form: double-stranded DNA, one strand shown; matrix: in vitro; concentration: 2540 nM top; notes: 60-bp whole probe; together with: salmon DNA 0.4 mg/ml; baseline: random background probes; direction: higher = stronger binding; all sequences stand within: GCCTAGCAC … GTCTTGATTCGCTTGACGCTGCTG
Target: Interferon regulatory factor 3, full length, phosphomimetic (IRF3, Homo sapiens, UniProt Q14653, residues 1-427, S386D/S396D/S398D/S402D/T404D/S405D)
Sequence of UniProt Q14653 (whole entry, unmodified, looked up): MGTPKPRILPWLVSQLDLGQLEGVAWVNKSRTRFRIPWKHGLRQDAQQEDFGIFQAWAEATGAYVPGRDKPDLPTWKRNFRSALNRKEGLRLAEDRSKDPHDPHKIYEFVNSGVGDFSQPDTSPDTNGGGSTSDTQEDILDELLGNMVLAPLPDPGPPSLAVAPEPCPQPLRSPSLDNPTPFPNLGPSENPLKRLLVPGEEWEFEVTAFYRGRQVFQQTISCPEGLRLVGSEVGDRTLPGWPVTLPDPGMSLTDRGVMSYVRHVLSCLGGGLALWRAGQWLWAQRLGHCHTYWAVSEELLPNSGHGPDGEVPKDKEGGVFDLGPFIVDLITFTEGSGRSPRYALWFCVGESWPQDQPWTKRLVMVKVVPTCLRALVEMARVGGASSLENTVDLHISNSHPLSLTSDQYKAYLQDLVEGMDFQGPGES
`GACAGTTTCCTTATCCTGACGTGCTAG` — result for “fitted relative affinity”: 8.36 z-score.
`ATCTCACTCTAATCTCACTCTGTGCTA` — result for “fitted relative affinity”: 0.979 z-score.
`GACGATTTCTGTATCGAGACGTGCTAG` — result for “fitted relative affinity”: 2.2 z-score.
Under “fitted relative affinity”, `TTAGGTCTCGGGACTGGGTTAGTGCTA` is recorded as -0.466 z-score.
For `CCCTAGGGGCTCTCAGAGATGTGCTAG`, “fitted relative affinity” read -0.736 z-score.
For `GACGATATAAGTTTCGAGACGTGCTAG`, “fitted relative affinity” read 2.01 z-score.
For `CTAGGTCTCCTTCTCCTTTAGTGCTAG`, “fitted relative affinity” read 3.8 z-score.
`GACGAACTGGGGTTTCGACACGTGCTA`: “fitted relative affinity” 0.306 z-score.
For `GATGGTCTCCTACTGCTGACGTGCTAG`, “fitted relative affinity” read 0.61 z-score.
Under “fitted relative affinity”, `TCAATTATCCTTGTCCCACTGTGCTAG` is recorded as 1.74 z-score.
`TTACAACTGAGACTGGATTAGTGCTAG` — result for “fitted relative affinity”: -0.247 z-score.
`GAACTTTGGCCTCTAGGTTTGTGCTAG`: “fitted relative affinity” -0.716 z-score.
`ATAGATATGCCAAATCTGTGTGTGCTA` — result for “fitted relative affinity”: 0.0547 z-score.
`CTAACTTTCCAATTGTCCTTGTGCTAG`: “fitted relative affinity” 4.44 z-score.
Under “fitted relative affinity”, `TTAGGACTGCTTCTCCTTTCGTGCTAG` is recorded as 0.323 z-score.
`TCAAGAATGCCTTTAATACTGTGCTAG` — result for “fitted relative affinity”: -0.41 z-score.
Under “fitted relative affinity”, `TCAGCTTTCCTTTGCTTACTGTGCTAG` is recorded as 2.86 z-score.
Under “fitted relative affinity”, `GACGATTTGGGGACTGGAGACGTGCTA` is recorded as -0.0509 z-score.
`GACGGTTTCGGGTATCGCGACGTGCTA` — result for “fitted relative affinity”: 4.27 z-score.

Set 4 — technique: protein-binding microarray; form: double-stranded DNA, one strand shown; matrix: in vitro; concentration: not given; direction: higher = stronger binding
Target: Max dimerization protein 1, bHLH-zipper, MAX partner unstated (MXD1, Homo sapiens, UniProt Q05195, residues 56-136)
Notes: k-mer, scored over probes, only values ≥0.25
Target sequence (chain): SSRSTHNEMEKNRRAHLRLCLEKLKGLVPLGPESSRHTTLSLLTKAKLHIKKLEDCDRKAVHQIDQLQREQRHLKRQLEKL
With `ACGTGGAG` the E-score was 0.415.
With `ATGGCACG` the E-score was 0.299.
With `ACATGTCC` the E-score was 0.377.
`CGTGATTC` has an E-score of 0.346.
`ACGTGACC` gave an E-score of 0.353.
`AAACATGT` has an E-score of 0.381.
`CCCACGGG` has an E-score of 0.31.
`CGGCACGC` gave an E-score of 0.289.
For `AGCGCACG`, the E-score was 0.324.
The E-score of `GAACCCAC` is reported as 0.271.
`AGCGTGAT` has an E-score of 0.346.
For `ACGCACAT`, the E-score was 0.357.
With `CGCATGAC` the E-score was 0.307.
With `ATGCGCAC` the E-score was 0.299.
`CACCTGGC` has an E-score of 0.274.
For `ACGTGAGG`, the E-score was 0.335.
With `ACGCTGCC` the E-score was 0.25.
`CCCGTGCA` gave an E-score of 0.269.
With `CATGCATA` the E-score was 0.298.
The E-score of `ATGCCACG` is reported as 0.377.
`CGCGTGAA` gave an E-score of 0.314.
`ATGTGGGA` gave an E-score of 0.343.
With `AACGCACG` the E-score was 0.356.
`GTGTCATA` has an E-score of 0.267.
`GGAGACAC` has an E-score of 0.303.

For quick reference, copied from above (set 4):
With `ATGCGCAC` the E-score was 0.299.
`CACCTGGC` has an E-score of 0.274.
For `ACGTGAGG`, the E-score was 0.335.
With `ACGCTGCC` the E-score was 0.25.
`CCCGTGCA` gave an E-score of 0.269.
